Published values gathered from unrelated publications.
Every numbered part comes from another study and shows a few of its results, in no order. Positions count from the first letter of the parent shown.

Block 1
Target: vanadate, free oxyanion
Method: microfluidic competitive inhibition
Matrix: in vitro, cell-free expressed
Concentration: not given
Notes: derived from inhibition constants, unchanged parent 676 nM
Reading: lower = stronger binding
Quantity: oxyanion analog dissociation constant
Parent: PafA, mature enzyme, eGFP fusion (Elizabethkingia meningoseptica, UniProt Q9KJX5); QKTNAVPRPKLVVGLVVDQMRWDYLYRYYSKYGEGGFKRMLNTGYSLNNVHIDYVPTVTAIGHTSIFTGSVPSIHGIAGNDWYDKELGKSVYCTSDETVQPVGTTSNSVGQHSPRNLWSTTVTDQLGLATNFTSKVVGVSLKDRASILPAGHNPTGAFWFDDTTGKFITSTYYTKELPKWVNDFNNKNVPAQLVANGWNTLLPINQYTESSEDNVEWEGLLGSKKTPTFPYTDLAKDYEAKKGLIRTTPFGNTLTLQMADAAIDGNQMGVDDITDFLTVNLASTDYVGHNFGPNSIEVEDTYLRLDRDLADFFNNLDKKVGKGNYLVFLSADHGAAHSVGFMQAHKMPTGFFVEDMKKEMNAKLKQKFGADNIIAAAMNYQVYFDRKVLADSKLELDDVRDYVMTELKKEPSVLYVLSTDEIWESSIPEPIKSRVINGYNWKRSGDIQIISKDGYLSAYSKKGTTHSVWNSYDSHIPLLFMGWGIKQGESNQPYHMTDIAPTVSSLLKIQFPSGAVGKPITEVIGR
W469G: 542 nM
N185V: 650 nM
D473V: 755 nM
V298A: 795 nM
Y415G: 662 nM
E297G: 815 nM
G265V: 741 nM

Block 2
Target: Ras GTPase-activating protein-binding protein 1, C-terminal RGG region (G3BP1, Homo sapiens, UniProt Q13283)
Sequence of UniProt Q13283 (whole entry, looked up): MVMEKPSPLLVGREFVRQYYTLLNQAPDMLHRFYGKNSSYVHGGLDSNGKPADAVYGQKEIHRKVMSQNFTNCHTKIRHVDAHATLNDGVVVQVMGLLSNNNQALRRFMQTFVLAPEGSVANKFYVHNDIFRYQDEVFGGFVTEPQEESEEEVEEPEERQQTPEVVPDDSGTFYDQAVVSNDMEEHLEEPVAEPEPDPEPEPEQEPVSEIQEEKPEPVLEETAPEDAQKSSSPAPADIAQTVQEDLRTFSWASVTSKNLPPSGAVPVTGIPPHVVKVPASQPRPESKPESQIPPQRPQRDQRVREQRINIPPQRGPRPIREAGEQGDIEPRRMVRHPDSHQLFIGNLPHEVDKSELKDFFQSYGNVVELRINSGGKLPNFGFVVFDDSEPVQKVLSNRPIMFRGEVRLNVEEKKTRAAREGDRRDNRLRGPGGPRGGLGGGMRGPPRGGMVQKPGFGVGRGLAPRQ
Method: RNA Bind-n-Seq
Form: RNA
Matrix: in vitro
Concentration: 1 µM
Notes: whole 134-nt RNA, ends assumed
Together with: 150 mM KCl
Baseline: input library
Reading: higher = stronger binding
Quantity: log2 enrichment
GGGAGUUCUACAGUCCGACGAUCCAAGUCCUGUGCUACACAUCGUAUGUACCGAAUCGGAAAAAAAGGAGGUUUUUGGAAAGUAUUAUGUUACGCCGUUCGGAUCUGCACUUCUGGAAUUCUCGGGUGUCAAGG: -1.64
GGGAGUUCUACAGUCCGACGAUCUGGGAGGUGGAUUUUGUUUAUUUUUUUAGCUCAUUUCCAGGGGUGGCAAUUUUUUUUUAAUAUGUGUCAUGAAUAAAGUUGUUUUUGAAAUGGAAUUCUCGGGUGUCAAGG: 3.67
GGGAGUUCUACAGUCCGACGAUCUCCUGUGCUACACAUCGUAUGUACCGAAUCGGGGUUUGGGGAAAAAGGGGUUUUUGGGGAAAGUAUUAUGUUACGCCGUUCGGAUCUGCAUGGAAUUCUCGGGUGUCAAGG: 2.62
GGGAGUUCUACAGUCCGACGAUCCCUGUGCUACACAUCGUAUGUACCGAAUCGGGGCCCCCCGGGGCCCCCCGGGCCCCCCGGAAAGUAUUAUGUUACGCCGUUCGGAUCUGCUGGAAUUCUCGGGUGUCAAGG: -1.68
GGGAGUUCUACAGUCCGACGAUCUGGCCCUGGUGGCAUCCGGGGAGGAAGAGGUGGCCUCAUGGAUCGUGGUGGUCCCGGUGGAAUGUUCAGAGGUGGCCGUGGUGGAGACAGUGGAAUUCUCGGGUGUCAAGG: 2.02
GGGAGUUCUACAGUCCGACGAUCGCAGGAAGUAAAAACAAAUGGAAAUGCUUCGGAUAGUGGCAGGGGGGGGGGUUGCUAAGGAAAGGGUGGGAUGGGAGUGGGUAAAGAGUUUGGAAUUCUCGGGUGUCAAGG: 0.889
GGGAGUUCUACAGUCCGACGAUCAUUAAUUUGUACACAGACAGGGAAACUGGCAAGCUGAAGGGAGAGGCAACGGUCUCUUUUGAUGACCCACCUUCAGCUAAAGCAGCUAUUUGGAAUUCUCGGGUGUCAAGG: -1.44
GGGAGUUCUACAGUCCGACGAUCCUGUGCUACACAUCGUAUGUACCGAAUCGGGUUUUUUUGGGGUUUUUUUGGUUUUUUUGGGAAAGUAUUAUGUUACGCCGUUCGGAUCUGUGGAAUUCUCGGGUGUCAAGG: -1.28

Block 3
Target: CCND3, cyclin fold, Cln2 fusion (human)
Method: yeast growth competition, sequencing
Matrix: yeast
Notes: weak parent motif
Baseline: not given
Reading: higher = stronger binding
Quantity: normalised enrichment score
Parent: viral docking peptide; KGVKRKLFAEDSS; partner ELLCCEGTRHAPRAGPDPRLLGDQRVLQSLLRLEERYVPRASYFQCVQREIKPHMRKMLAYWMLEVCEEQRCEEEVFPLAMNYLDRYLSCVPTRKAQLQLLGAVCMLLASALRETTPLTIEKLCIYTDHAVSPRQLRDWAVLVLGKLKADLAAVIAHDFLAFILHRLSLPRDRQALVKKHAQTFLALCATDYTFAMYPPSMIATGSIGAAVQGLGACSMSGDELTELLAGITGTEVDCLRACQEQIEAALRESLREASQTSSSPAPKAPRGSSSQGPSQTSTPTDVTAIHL
KGVKRKLFAEDDS [S12D]: -0.184
KGVKRKAFAEDSS [L7A]: 0.195
KGVKRKLFAEASS [D11A]: 0.206
KPVKRKLFAEDSS [G2P]: 0.164
KGVKRKCFAEDSS [L7C]: 0.188
KEVKRKLFAEDSS [G2E]: 0.186
KGVKRKLFAGDSS [E10G]: -0.0635
KGVFRKLFAEDSS [K4F]: -0.0301
KVVKRKLFAEDSS [G2V]: 0.489
KGVKGKLFAEDSS [R5G]: -0.511
KGVVRKLFAEDSS [K4V]: -0.418
KGVKRELFAEDSS [K6E]: 0.121
KGVKRKLFALDSS [E10L]: 0.693
KGFKRKLFAEDSS [V3F]: 0.396
KGVKRKLFAEDSA [S13A]: 0.211
KGVKPKLFAEDSS [R5P]: 0.111
KGVKRKSFAEDSS [L7S]: 0.368
KGVKRKLFANDSS [E10N]: -0.0664
KGVKRKLFACDSS [E10C]: 0.0233
KGVKRKLFAESSS [D11S]: 0.297
KGVKRKLHAEDSS [F8H]: -0.137
KGVKRKLFASDSS [E10S]: 0.546
KGVKRDLFAEDSS [K6D]: -0.526
KGVKRKLFLEDSS [A9L]: 0.0604
KGVKRKLFAEMSS [D11M]: -0.148

Block 4
Target: Centromere-binding protein 1, full length, N-terminal tag (CBF1, Saccharomyces cerevisiae, UniProt P17106, residues 1-351)
Sequence of UniProt P17106 (whole entry, looked up): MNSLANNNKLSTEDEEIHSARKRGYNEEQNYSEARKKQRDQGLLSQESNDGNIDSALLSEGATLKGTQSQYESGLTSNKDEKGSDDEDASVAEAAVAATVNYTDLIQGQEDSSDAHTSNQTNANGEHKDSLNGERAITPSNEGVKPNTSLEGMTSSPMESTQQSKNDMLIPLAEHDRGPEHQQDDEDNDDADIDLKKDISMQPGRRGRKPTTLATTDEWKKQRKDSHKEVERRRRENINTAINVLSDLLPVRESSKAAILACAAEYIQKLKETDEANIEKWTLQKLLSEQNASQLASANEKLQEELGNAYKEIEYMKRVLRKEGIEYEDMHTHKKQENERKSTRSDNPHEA
Method: protein-binding microarray
Form: double-stranded DNA, one strand shown
Matrix: in vitro
Concentration: 0.8 µM
Notes: whole 60-bp probe, no competitor
Reading: higher = stronger binding
Quantity: fluorescence intensity
TGTACGAAGCTATTGACTGCGTATATAGTAGTTAGGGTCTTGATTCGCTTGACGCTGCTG: 511 a.u.
GAAACGGTCGTCTACCACGTCGCTGGTGGAGCCTAGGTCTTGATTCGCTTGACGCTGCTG: 489 a.u.
GAACTTTTTAGTTAGCACGTTTTCATCTCTTTTTAGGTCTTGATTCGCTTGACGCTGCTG: 915 a.u.
GAAGCATCATGCGGGAACGTGCAGTAAAGCTCATAGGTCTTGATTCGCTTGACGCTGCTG: 673 a.u.
CCTAACTACTATATATTCATGATATAGCTTCGTACAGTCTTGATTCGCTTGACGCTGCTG: 517 a.u.
CTAGACGTTGAAGAGCACGCAGGCCTATGAAAATTCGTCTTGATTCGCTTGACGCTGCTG: 537 a.u.
CTAATAAACAGAGCAAATATCACGTGCACAAAGTTCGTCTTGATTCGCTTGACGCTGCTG: 14600 a.u.
GAATCCAAGAGGGATCACATCACGATACTATTGTAGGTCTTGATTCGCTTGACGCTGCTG: 913 a.u.

Further values, each from its own experiment
PhoQ, residues 284 288 289 292 302 303 AEGLLW
fold induction (PhoP, residues 12 14 15 18 19 AQALL (Escherichia coli, UniProt P23836); Sort-seq, item: YFP reporter; E. coli; PhoQ-PhoP variant library, together with: 10 µM Mg2+; baseline: high Mg2+ state, higher = stronger signaling): 5.33

Cc1cc(C)c(-n2ccn3nc(-c4cccnc4)cc23)cc1NC(=O)c1cc(C#N)cc(S(F)(F)(F)(F)F)c1
remaining binding (pknB (Mycobacterium tuberculosis, UniProt P9WI81); cell-free assay, competition with immobilised ligand; 0.1 µM): 62.5%

Excerpt of the above (block 1):
V298A: 795 nM
E297G: 815 nM
W469G: 542 nM
N185V: 650 nM
Y415G: 662 nM
